Measurements gathered from unrelated publications.
± marks the error that the study gave.

SMILES | cell line | test | system | conditions | IC50
CC#CC#C/C=C1/O[C@@]2(CCCCO2)[C@@H](O)[C@@H]1OC(C)=O | RAW264.7 | NO release, inhibitor, Griess | – | LPS-stimulated | 7.42 µM
CC(C)c1ccc(N(C)c2ccc3c(c2)OCC[C@H]3CNc2cnccc2C(=O)O)cc1 | P31-FUJ | cell growth or viability, ATP luminescence | – | 7 days | 0.00432 µM
CC[C@H](C)[C@H](NC(=O)[C@H](CCCCN)NC(=O)C[C@H](Cc1ccccc1)NC(=O)[C@H](CC(C)C)NC(=O)CN)C(=O)N[C@H](CC(=O)N[C@@H](CCCCN)C(=O)N[C@@H](CCCCN)C(=O)N[C@H](CC(=O)N[C@@H](CC(C)C)C(=O)N[C@@H](CCCCN)C(=O)N[C@@H](CO)CC(=O)N[C@@H](Cc1ccccc1)C(N)=O)[C@@H](C)CC)[C@@H](C)CC | NIH 3T3 | cytotoxicity | – | – | 17.9 mg/L
COC(=O)N1c2ccc3c(nc(Cc4ccccc4)n3[C@@H]3CCC[C@@H](C(=O)O)C3)c2CC[C@@H]1C | HCC1500 | cell growth or viability, ATP luminescence | – | 10 days | 0.08 µM
CNS(=O)(=O)Nc1nccc(Cc2c(C)c3ccc(Oc4ncccc4F)cc3oc2=O)c1F | HPAC | cell viability | – | 7 days | 0.00573 µM
Cc1ccnc(-c2cc(C(=O)O)ccn2)c1.F[P-](F)(F)(F)(F)F.F[P-](F)(F)(F)(F)F.[Ru+2].c1ccc(-c2ccccn2)nc1.c1ccc(-c2ccccn2)nc1 | MCF-10A | cell viability | – | 48 h, light irradiation 2.5 min | > 100 µM
CCOc1cncc(-c2ccc(NC(=O)C3(c4ccnc(NS(=O)(=O)C5CC5)n4)CCOCC3)nc2)n1 | SNU-449 | cell proliferation, CellTiter-Glo | – | 72 h | 10 µM
C=CC(=O)N1CCCC(n2c(=O)c3ncccc3n(Cc3ccc(Oc4ccccc4)cc3)c2=O)C1 (stereo not drawn) | UPN1 | cell growth or viability, MTT | – | 72 h | 0.12 µM
CC(C)C(=O)Cc1c(OCC(O)C(C)(C)O)ccc2ccc(=O)oc12 (stereo not drawn) | COLO 205 | cell growth or viability, MTT | – | 72 h | > 100 µM
CC[C@H](NC(=O)[C@H](CCCCN)NC(=O)[C@H]1CCC[C@@H]1NC(=O)[C@@H](NC(=O)[C@H](CCCCN)NC(=O)[C@H](CCCCN)NC(=O)C[C@@H](NC(=O)[C@@H](NC(=O)[C@H](CCCCN)NC(=O)[C@H](Cc1ccccc1)NC(=O)[C@H]1CCC[C@@H]1NC(=O)CN)[C@@H](C)CC)[C@@H](C)CC)[C@@H](C)CC)C(=O)N[C@@H](Cc1ccccc1)C(N)=O | NIH 3T3 | cytotoxicity | – | – | 12.5 mg/L
CCn1nc(Cl)c2c1-c1cnc(N)c(c1)O[C@H](C)c1cc(F)ccc1-c1nn(C)cc1C2 | Ba/F3 EML4-ALK v3, no mutation | cell viability | – | – | 0.0011 µM
COc1cc(-c2cc(C(C)=O)n3ccccc23)c(OC)cc1Cn1ccnc1 | MOLM-13 | cell growth or viability, ATP luminescence | – | – | 0.1 µM
Cn1ncc(-c2ccc3c(=O)[nH]nc(CN)c3c2)c1-c1c(F)c(Cl)cc(OC2CC2)c1C#N | SW1088 | cell viability, inhibitor, CellTiter-Glo | – | 120 h, baseline-subtracted | 0.02 µM
COc1ccc(C(O)=CC(=O)c2ccc(C(C)(C)C)cc2)cc1.[Ru+2].c1ccc(-c2cccc(-c3ccccn3)n2)nc1.c1cnccn1 | HL-60 | cytotoxicity | – | dark | 0.55 µM
CC[C@H](C)[C@H](NC(=O)[C@H](CCCCN)NC(=O)C[C@H](Cc1ccccc1)NC(=O)[C@H](CC(C)C)NC(=O)CN)C(=O)N[C@H](CC(=O)N[C@@H](CCCCN)C(=O)N[C@@H](CCCCN)C(=O)N[C@H](CC(=O)N[C@@H](CC(C)C)C(=O)N[C@@H](CCCCN)C(=O)N[C@H](CC(=O)N[C@@H](Cc1ccccc1)C(N)=O)CC(C)C)[C@@H](C)CC)[C@@H](C)CC | NIH 3T3 | cytotoxicity | – | – | 9.6 mg/L
CN1CC[C@@H](COc2cnc(C#N)cc2-c2ccn3nc(NC(=O)C4CC4)cc3c2)C1 | C57BL/6 mouse BMDC | TNF release | – | 3 h, together with: LPS | 0.26 µM
CC(C)C[C@](O)(C(=O)OCc1ccc(O[C@@H]2O[C@H](CO)[C@@H](O)[C@H](O)[C@H]2O)cc1)[C@H](O)C(=O)OCc1ccc(O[C@@H]2O[C@H](CO)[C@@H](O)[C@H](O)[C@H]2O)cc1 | MDA-MB-231 breast cancer | cell viability, MTT | DMEM with 10% FBS | 48 h | > 200 µM
COc1cc(-c2cn(C)c(=O)c3cnccc23)c(OC)cc1CN(C)C | MOLM-13 | cell growth or viability, ATP luminescence | – | – | 69.9 µM
CN1CCC(N[C@@H]2CCc3[nH]c4c(C(N)=O)ccc(-c5ccccc5Cl)c4c3C2)CC1 | B16F10 | cell proliferation | – | 96 h | 0.0175 µM
O=C1c2cccc[c]2[Au-]([Cl])([Cl])[n+]2ccccc21 | A-375 | cell growth or viability, resazurin | – | 72 h | 19 µM
CC(=O)NCCOCCOCCOCCNC(=O)c1cc(C(=O)N2CCNCCNCCNCC2)c(O)c(C(=O)N2CCNCCNCCNCC2)c1 | WI-38 | cell growth or viability, MTT | – | 24 h | > 1000 µM
CN(C)CCOc1cc(NC(=O)c2cccc(C(=O)Nc3cc(OCCN(C)C)c4ccccc4n3)n2)nc2ccccc12 | WI-38 | cell growth or viability, ATP luminescence | – | 72 h | 2.1 µM
CCN(C(=O)c1cc(F)ccc1Oc1nncnc1N1CCC2(C1)CN(C(CCCN(C)CCOC)C(C)C)C2)C(C)C (stereo not drawn) | MOLM-14 | QuantiGene, refers to: MEIS1 mRNA | – | – | 1.37 ± 0.073 µM
C#CC[C@]1(O)C[C@H](C)N2CCc3cc(OCc4cc(C)cc(C)c4)c(OCc4cc(C)cc(C)c4)cc3[C@@H]2C1 (relative stereo) | ASPC1 | cell growth or viability, MTT | – | – | 0.802 µM
CC#CC(=O)N1CCC[C@H]1c1nc(-c2ccc(C(=O)Nc3ccccn3)cc2)c2c(N)nccn12 | Ramos | IP1 production, HTRF | – | 4 h, together with: anti-IgM | 0.00724 µM
CC1C(CO)CCC2(CO)CCC3(C)C(=CCC4C(C)(CCC(=O)O)C(C(C)(O)CO)CCC43C)C12 (stereo not drawn) | RAW264.7 | NO release, inhibitor, Griess | – | LPS-stimulated | > 100 µM
NC(=O)c1ccc(-c2ccccc2Cl)c2c3c([nH]c12)CCC(N)C3 (stereo not drawn) | Ramos | cell growth or viability | – | 96 h | 0.0184 µM

For quick reference, copied from above:
SMILES | cell line | test | system | conditions | IC50
CN1CCC(N[C@@H]2CCc3[nH]c4c(C(N)=O)ccc(-c5ccccc5Cl)c4c3C2)CC1 | B16F10 | cell proliferation | – | 96 h | 0.0175 µM
O=C1c2cccc[c]2[Au-]([Cl])([Cl])[n+]2ccccc21 | A-375 | cell growth or viability, resazurin | – | 72 h | 19 µM
CC(=O)NCCOCCOCCOCCNC(=O)c1cc(C(=O)N2CCNCCNCCNCC2)c(O)c(C(=O)N2CCNCCNCCNCC2)c1 | WI-38 | cell growth or viability, MTT | – | 24 h | > 1000 µM
